Results of several laboratories.
A part holds a random share of what one study measured.

Study 1 — method: RNA Bind-n-Seq; molecule type: RNA; sample: in vitro; tested at: not given; reference: input RNA pool; reading: higher = stronger binding
Target: RING finger protein unkempt homolog, zinc fingers 1-6, GST-SBP tag (UNK, Homo sapiens, UniProt Q9C0B0, residues 30-357)
Setting: RNA with constant flanks, human-mouse chimeric sites, ends assumed
Shared flanks, not repeated: GGGAGUUCUACAGUCCGACGAUC … CAACAGAGGAUUGAGCAUCA
Construct (chain): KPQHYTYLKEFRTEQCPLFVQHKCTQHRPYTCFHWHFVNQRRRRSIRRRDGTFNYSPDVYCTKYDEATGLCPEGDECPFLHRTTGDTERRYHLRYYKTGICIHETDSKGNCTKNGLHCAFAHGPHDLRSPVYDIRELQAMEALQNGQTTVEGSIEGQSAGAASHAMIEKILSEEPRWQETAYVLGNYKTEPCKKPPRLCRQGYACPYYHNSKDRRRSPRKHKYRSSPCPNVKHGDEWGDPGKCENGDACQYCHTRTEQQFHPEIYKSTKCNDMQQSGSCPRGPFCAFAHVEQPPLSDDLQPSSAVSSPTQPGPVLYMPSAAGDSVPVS
Oligonucleotide	bound/input enrichment [ratio]
GUGUCCUGCUUUCAACUUAAAUCACUGCAUUUUUACUACUGUUCUGUGAGCAUCAGGACUGUAGCGCUGUGUCACCACAUGAGAGUUCAGAAGCAGCCUUUCUGUGGAGGGUGGGAAUGA	0.209
GGCUGCUGGUGACUGUCCUGGAGUGGCCGUGUCACCGGCCGGAGCGCGCGCAGGUUAAUUUUAGAAAAUGCCAAGUAGGAAGUUUGUUGAGGGUGAAGUGGUCAGAGGCCGAUGGCCUGG	1.46
AACGUGGAGUUGAGUUCGCUGGCCCGGCUUCCCAGCUUGAAUAAACUCCGGAAGUUGGAACUUAGUGACAAUAUAAUUUCUGGAGGCUUGGAAGUCCUGGCAGAGAAAUGUCCAAAUCUU	0.329
GAUCUCGGGCCCUCCCCAGGGGCCUCCUUCUCUGCAUUCACUGCUUCUGCAUCAGAUACUUUCAGCUGCAACUCCCUACUGGGUGGGGCACCCAUUUCAGGCAGAAGGUUUUGGUACCCU	0.206
CCCCAAUACCAUUUGCAGGUCUGGAACUGCACUCUCUUUUUUAAAAAACAUGUAUACAUUUUAGGGCUGUAGACUUAUUUUCCUGGUUUUGUUUUUCUUGCUUAUUCUUUGAGCACAGAA	2.13
GAGUCGAGCAAACUUGAAACAAUUCGUUAUCUUGCAGCCUCAGUGUUCACUUGCUUGUGGCAAUAGCAUUGGGAUUUUAGGUUCUGGAAGGAGAACUGACGAUGAUGCUGCCGCUGCUGC	0.146
CCCCAAUACCAUUUGCAGGUCUGGAACUGCACUCUCUUUUUUAAAAAACAUGUAUACAUUUUAGGGCUGUAGAUUUACUUUCCUAUUUUUGUUUUUCAUUGCUGACUUUGAGCACAAGAA	1.73
GCGGCAGAAUCAUGGAGGACAUAAUGCACUUGCCCAGGUCGCGCAUCAACGCCAGCAUGUUACCACAGUAUAUCGACCGGCCCGUGUGCUUCGUGGGGAAGCUGGAAAAGAUUCAUCCCA	0.083
GAUCAUGAACCACCAUCAGAAAUGAAGAUGAGAUUACCCAGACGAGCCAAAACAGCUGCGCUACAGAAAAGUAAACUUUAACCUUGCGAGUUCCUUAAUGAAGAUACUAAGUUAGGAAGC	0.326
AAAGUGAUAACCAUGUUUGUCCAACGACAGGUAUUUUCGGAGAGCAAAGAUGAGAUUGCGUUAGUCCUCUAUGGCACAGAUGGCACUGAUAAUGCCCUUUCUGGUGGGGACCAGUAUCAG	0.224
UUAAUCCCCUUUACUGCUCCCCCACUUCUCAUGGUAAUAACAAAGUCUUAUAUCCCCGUCCUAGCUUUCACUCAGAUGGCUUAUGGAGCCAGUUUCCUAGCUUUCUUGGGAGGGAUCAGA	0.29

Study 2 — method: RNA Bind-n-Seq; molecule type: RNA; sample: in vitro; tested at: 200 nM; setting: whole 134-nt RNA, ends assumed; added: 150 mM LiCl; reference: input library; reading: higher = stronger binding; library: 7-deaza-guanosine replaces G
Target: Fragile X messenger ribonucleoprotein 1, C-terminal low-complexity region (Fmr1, Mus musculus, UniProt P35922)
Shared flanks, not repeated: GGGAGUUCUACAGUCCGACGAUC … UGGAAUUCUCGGGUGUCAAGG
Oligonucleotide	log2 enrichment
CAAGUCCUGUGCUACACAUCGUAUGUACCGAAUCGGGGAAGGGGAAGGGAAGGGGAAAGUAUUAUGUUACGCCGUUCGGAUCUGCACUUC	-0.0635
AAGUCCUGUGCUACACAUCGUAUGUACCGAAUCGGGAAAGGGUGGGUUUUUUUGGGAAAGUAUUAUGUUACGCCGUUCGGAUCUGCACUU	-1.68
CAAGUCCUGUGCUACACAUCGUAUGUACCGAAUCGGUUUUUGGAAAAAAAGGAGGAAAGUAUUAUGUUACGCCGUUCGGAUCUGCACUUC	-1.58
CACAGACAACACGCACCCACACAGACACGGAGGGAAGGGGUUGGGAUGGGGACAGGGUGCACAGCAGGGCGGGGUAGGACCCCAGCCCCU	0.354
UAACUUUAGAGGAGGAUCUGAUGGAUAUGGCAGUGGACGUGGAUUUGGGGAUGGCUAUAAUGGGUAGGGAGGAGGACCUGGAGGUGGCAA	-0.0637
UGCACUGACUGGUGGUGUCAACCCAUGGCUCAACUGGAAGCACUGUGGAAGAAGAUGGAGGGUGUGGUAAGUCCAUCAGACCUGGGACCG	-1.38
AAGUCCUGUGCUACACAUCGUAUGUACCGAAUCGGGAAAAAGGGUUUUUGGGAGGGAAAGUAUUAUGUUACGCCGUUCGGAUCUGCACUU	-1.47
CACAGACAACACGCACCCACACAGACACAGAGGGAAGGGGUUGGGAUGGGGACAGGGUGCACAGCAGGGCGGGGUACGACCCCAGCCCCU	1.39
UGUGCUACACAUCGUAUGUACCGAAUCGGGCCCCCCCGGGGCCCCCCCGGGGCCCCCCCGGGGAAAGUAUUAUGUUACGCCGUUCGGAUC	-1.71
UGCCUGCUCCGGGCCCCGUGCUGGCGCCUACGCACCUGCAGACAGAGCUGGUGCUGAGGUGCCAGAAGGAGACCGACUGUGACCUCUGUC	-1.39
UAACUUUAGAGGAGGAUCUGAUGGAUAUGGCAGUGGACGUGGAUUUGGGGAUGGCUAUAAUGGGUAUGGAGGAGGAGCUGGAGGUGGCAA	1.26

Study 3 — method: protein-binding microarray; molecule type: double-stranded DNA, one strand shown; sample: in vitro; tested at: 2540 nM top; setting: 60-bp whole probe; added: salmon DNA 0.4 mg/ml; reference: random background probes; reading: higher = stronger binding; shared flanks, not repeated: GCCTAGCAC … GTCTTGATTCGCTTGACGCTGCTG
Target: Interferon regulatory factor 3, full length, phosphomimetic (IRF3, Homo sapiens, UniProt Q14653, residues 1-427, S386D/S396D/S398D/S402D/T404D/S405D)
Construct (chain): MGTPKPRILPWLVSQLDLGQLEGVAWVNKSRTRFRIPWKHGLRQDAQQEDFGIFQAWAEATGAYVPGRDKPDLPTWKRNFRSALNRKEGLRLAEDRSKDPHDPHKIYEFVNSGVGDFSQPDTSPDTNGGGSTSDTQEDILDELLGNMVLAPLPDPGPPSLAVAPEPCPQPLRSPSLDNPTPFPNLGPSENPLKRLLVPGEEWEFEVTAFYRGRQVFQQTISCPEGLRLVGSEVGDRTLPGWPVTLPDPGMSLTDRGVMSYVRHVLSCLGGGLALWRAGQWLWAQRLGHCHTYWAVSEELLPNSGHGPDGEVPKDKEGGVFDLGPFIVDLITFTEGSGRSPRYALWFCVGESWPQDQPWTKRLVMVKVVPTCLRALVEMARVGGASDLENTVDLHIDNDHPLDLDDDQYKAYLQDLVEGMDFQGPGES
Oligonucleotide	fitted relative affinity
TTAGGTCGCCTTTTCCTTTAGTGCTAG	2.99 z-score
TTAGAACTGCTTTTCCTTTAGTGCTAG	0.754 z-score
TCACTTTCCTTCTTGAAACTGTGCTAG	11.1 z-score
TCCTGTTTGATAATTTTTTTGTGCTAG	0.63 z-score
CCCGATATGCGGTAAGGGCGCGTGCTA	-0.158 z-score
GACGGTTTCCTTTTCCTGAGGTGCTAG	10.8 z-score
GACGGTTTGGGACTGGGGACGTGCTAG	-0.111 z-score
TCATCTCTTATTCTAACACTGTGCTAG	1.46 z-score
TTAGGACGGGGGTTTCGGTTAGTGCTA	2.81 z-score
GACGTTATCGGACTGGGGACGTGCTAG	0.266 z-score
TTAGGTTTCCTGATCCTTTAGTGCTAG	3.78 z-score
TTCAATTTTTGCATCGTAAGGTGCTAG	0.198 z-score
GACGGTTTCGGACTTGGGACGTGCTAG	5.94 z-score
GACGAACTGCGGTATCGAGACGTGCTA	-0.0751 z-score
GACTGTTTCGGGACTGGGGACGTGCTA	3.89 z-score
TTAGGTTTCCTACTTCTTTAGTGCTAG	6.48 z-score
TCACGTATATTCCCTAGAACTGTGCTA	0.087 z-score
TTAGGTTTCGACTATCGGCTAGTGCTA	2.26 z-score
TCAACTTTCACTTCTCCACTGTGCTAG	5.83 z-score
ACATATTTGTTTCCATTTTCGTGCTAG	6.77 z-score
TTGGCTTATTCCAGATTTTTGTGCTAG	-0.114 z-score
TTAGATATCGGGTATCGATAAGTGCTA	0.27 z-score
TCATTTCTCAACCTCCAACTGTGCTAG	2.26 z-score
GACGGTTTCGAACTGGGGACGTGCTAG	3.29 z-score
GACGTTCTCCTACTGCTGACGTGCTAG	1.76 z-score

Study 4 — method: protein binding microarray; molecule type: double-stranded DNA, one strand shown; sample: in vitro; tested at: not given; reference: not given; reading: higher = stronger binding
Target: Histone acetyltransferase KAT6A, both winged helices, GST fusion (KAT6A, Homo sapiens, UniProt Q92794, residues 1-181)
Setting: 8-mer, flanks averaged, mean of 2 arrays, mostly near background
Residues (chain): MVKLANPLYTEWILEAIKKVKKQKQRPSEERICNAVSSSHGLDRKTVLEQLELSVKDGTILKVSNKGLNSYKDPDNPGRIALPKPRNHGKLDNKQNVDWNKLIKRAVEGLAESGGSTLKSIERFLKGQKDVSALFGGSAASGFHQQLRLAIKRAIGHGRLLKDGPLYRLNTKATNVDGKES
Oligonucleotide	E-score
GGCAGAGA	-0.0185
CGGTGGTA	0.0697
GTTGCTGA	-0.0307
GACGTATC	0.0764
GTCGCAAC	0.0864
AGCGTTAG	-0.0272
GCTCACAA	0.0151
GAAATTGA	0.0453
GGAGTGAC	-0.0361
GCCAGCTA	-0.137
CGAAGATA	-0.0741
AAAGCCGA	0.0555
AATCATAT	0.0503
AAGACATG	-0.0781
CTCACAGC	-0.0595
GACTAATA	-0.105
ATCAATAC	-0.0458
ATCGAGCC	0.166
CGATGGTC	-0.0478
GACGTGCC	0.0121
CTGTAATC	-0.0883
GTTACTTA	-0.0642
ACCGCATG	0.24
AATCAATA	-0.0739
GAACGGCC	0.181

A few entries again (study 3):
Oligonucleotide	fitted relative affinity
GACTGTTTCGGGACTGGGGACGTGCTA	3.89 z-score
TTAGGTTTCCTACTTCTTTAGTGCTAG	6.48 z-score
TCACGTATATTCCCTAGAACTGTGCTA	0.087 z-score
TTAGGTTTCGACTATCGGCTAGTGCTA	2.26 z-score
TCAACTTTCACTTCTCCACTGTGCTAG	5.83 z-score
ACATATTTGTTTCCATTTTCGTGCTAG	6.77 z-score
